Published values collected from several papers.
A part holds a random share of what one study measured. Several values in a cell are separate wells, animals, samples, runs or records.
Sequence of UniProt Q9UKT9 (whole entry, looked up): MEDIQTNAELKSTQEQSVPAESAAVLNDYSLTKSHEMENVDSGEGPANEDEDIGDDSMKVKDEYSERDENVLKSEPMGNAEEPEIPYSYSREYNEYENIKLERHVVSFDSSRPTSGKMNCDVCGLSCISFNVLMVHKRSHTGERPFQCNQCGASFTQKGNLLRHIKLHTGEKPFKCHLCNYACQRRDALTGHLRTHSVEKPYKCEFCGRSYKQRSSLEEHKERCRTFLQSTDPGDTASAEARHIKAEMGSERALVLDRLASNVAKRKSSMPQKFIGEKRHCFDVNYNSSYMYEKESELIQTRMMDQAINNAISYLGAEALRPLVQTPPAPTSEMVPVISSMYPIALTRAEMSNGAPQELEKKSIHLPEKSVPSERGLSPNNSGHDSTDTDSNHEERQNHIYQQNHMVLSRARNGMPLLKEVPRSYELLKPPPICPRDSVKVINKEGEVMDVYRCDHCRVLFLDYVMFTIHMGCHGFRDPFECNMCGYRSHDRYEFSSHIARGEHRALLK
Sequence of UniProt Q9UJQ4 (whole entry, looked up): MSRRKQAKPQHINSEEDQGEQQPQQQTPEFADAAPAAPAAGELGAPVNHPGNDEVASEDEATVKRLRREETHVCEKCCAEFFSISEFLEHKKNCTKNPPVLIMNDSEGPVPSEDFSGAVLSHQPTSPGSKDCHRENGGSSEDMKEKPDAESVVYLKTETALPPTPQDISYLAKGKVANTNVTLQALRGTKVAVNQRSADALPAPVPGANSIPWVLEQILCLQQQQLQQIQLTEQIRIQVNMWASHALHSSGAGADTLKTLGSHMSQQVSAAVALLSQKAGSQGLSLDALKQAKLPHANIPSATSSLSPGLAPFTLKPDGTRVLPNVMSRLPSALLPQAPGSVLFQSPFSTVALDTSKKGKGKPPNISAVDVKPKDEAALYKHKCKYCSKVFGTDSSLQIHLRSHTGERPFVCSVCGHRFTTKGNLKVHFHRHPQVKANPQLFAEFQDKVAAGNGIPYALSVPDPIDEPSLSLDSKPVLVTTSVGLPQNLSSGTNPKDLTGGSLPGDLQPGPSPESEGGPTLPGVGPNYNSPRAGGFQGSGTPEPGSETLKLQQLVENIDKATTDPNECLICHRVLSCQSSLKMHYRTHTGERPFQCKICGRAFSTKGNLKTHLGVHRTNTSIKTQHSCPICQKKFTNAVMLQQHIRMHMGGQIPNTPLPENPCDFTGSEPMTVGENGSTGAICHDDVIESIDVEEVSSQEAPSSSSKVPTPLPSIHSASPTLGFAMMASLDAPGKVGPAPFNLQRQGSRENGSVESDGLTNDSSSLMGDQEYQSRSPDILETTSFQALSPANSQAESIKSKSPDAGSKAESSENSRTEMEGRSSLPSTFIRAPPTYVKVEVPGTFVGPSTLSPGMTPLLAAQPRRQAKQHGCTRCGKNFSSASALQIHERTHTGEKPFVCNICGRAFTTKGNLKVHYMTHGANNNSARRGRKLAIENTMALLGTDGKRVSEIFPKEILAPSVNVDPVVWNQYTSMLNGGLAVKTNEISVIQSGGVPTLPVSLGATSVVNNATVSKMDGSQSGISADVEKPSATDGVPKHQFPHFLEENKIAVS
Sequence of UniProt P48729 (whole entry, looked up): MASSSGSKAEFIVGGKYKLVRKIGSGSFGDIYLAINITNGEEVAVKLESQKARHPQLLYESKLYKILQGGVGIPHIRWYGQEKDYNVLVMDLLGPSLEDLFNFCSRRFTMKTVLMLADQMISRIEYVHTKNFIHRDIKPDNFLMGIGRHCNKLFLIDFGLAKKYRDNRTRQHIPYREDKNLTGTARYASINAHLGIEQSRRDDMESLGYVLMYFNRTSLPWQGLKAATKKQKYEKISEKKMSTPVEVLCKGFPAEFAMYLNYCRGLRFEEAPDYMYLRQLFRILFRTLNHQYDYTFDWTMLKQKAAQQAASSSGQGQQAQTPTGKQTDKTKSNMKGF
Sequence of UniProt O75385 (whole entry, looked up): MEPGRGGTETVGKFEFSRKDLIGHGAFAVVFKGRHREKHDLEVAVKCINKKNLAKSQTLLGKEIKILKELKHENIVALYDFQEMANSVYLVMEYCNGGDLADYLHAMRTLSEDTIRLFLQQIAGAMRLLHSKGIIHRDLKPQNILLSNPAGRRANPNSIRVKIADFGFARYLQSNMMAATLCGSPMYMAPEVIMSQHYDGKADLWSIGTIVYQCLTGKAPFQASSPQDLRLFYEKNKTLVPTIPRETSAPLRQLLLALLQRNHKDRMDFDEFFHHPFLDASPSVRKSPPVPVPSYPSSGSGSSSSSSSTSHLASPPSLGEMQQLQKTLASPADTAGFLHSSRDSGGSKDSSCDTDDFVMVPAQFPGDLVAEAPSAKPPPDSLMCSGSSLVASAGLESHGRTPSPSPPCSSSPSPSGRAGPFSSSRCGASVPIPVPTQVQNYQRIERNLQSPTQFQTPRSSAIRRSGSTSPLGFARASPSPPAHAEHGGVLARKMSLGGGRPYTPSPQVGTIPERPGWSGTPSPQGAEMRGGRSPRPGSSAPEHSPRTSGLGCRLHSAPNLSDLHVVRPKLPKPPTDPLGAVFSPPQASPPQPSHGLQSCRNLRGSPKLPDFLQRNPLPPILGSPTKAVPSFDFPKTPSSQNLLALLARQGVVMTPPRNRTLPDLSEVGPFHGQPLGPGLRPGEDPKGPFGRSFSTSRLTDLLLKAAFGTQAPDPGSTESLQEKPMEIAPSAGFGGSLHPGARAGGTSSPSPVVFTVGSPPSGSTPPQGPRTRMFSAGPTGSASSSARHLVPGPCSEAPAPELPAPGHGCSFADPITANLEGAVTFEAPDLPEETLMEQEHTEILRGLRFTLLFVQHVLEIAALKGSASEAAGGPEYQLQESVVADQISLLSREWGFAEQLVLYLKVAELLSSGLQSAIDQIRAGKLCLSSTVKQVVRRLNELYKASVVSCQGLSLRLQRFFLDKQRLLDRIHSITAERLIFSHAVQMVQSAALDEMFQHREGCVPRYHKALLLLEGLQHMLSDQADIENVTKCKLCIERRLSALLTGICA
Sequence of UniProt O00506 (whole entry, looked up): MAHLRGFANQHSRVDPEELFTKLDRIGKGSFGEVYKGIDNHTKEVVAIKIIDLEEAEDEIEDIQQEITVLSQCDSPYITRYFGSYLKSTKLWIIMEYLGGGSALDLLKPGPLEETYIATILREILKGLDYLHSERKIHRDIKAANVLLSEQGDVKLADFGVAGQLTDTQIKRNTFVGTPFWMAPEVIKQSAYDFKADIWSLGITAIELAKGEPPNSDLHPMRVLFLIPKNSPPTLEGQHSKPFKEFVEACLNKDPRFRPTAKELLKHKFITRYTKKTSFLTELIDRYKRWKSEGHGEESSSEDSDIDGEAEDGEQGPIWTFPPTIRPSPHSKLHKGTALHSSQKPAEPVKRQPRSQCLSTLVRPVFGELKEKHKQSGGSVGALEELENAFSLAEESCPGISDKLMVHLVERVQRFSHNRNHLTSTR

Set 1
SMILES: C[C@H](c1ccnc(Nc2nc3ccc(-c4cc(N(C)C)ncn4)cc3[nH]2)c1)N1CCN(C(=O)CC(F)(F)F)CC1
Tested at: 0.1 µM
Measurement: remaining binding
target = STK24 (Homo sapiens, UniProt Q9Y6E0); effect on = cell-free assay; technique = competition with immobilised ligand; result = 64%
target = CSNK1E (Homo sapiens, UniProt P49674); effect on = cell-free assay; technique = competition with immobilised ligand; result = 100%
target = CSNK1D (Homo sapiens, UniProt P48730); effect on = cell-free assay; technique = competition with immobilised ligand; result = 89%
target = MAP3K11 (Homo sapiens, UniProt Q16584); effect on = cell-free assay; technique = competition with immobilised ligand; result = 92%
target = CAMK1G (Homo sapiens, UniProt Q96NX5); effect on = cell-free assay; technique = competition with immobilised ligand; result = 76%
target = MYLK (Homo sapiens, UniProt Q15746); effect on = cell-free assay; technique = competition with immobilised ligand; result = 100%
target = STK17B (Homo sapiens, UniProt O94768); effect on = cell-free assay; technique = competition with immobilised ligand; result = 100%
target = FLT4 (Homo sapiens, UniProt P35916); effect on = cell-free assay; technique = competition with immobilised ligand; result = 92%
target = HIPK3 (Homo sapiens, UniProt Q9H422); effect on = cell-free assay; technique = competition with immobilised ligand; result = 100%
target = ERBB3 (Homo sapiens, UniProt P21860); effect on = cell-free assay; technique = competition with immobilised ligand; result = 88%
target = CAMK2D (Homo sapiens, UniProt Q13557); effect on = cell-free assay; technique = competition with immobilised ligand; result = 70%
target = PRKCI (Homo sapiens, UniProt P41743); effect on = cell-free assay; technique = competition with immobilised ligand; result = 100%
target = ULK1 (Homo sapiens, UniProt O75385); effect on = cell-free assay; technique = competition with immobilised ligand; result = 95%
target = PNCK (Homo sapiens, UniProt Q6P2M8); effect on = cell-free assay; technique = competition with immobilised ligand; result = 100%
target = DYRK1B (Homo sapiens, UniProt Q9Y463); effect on = cell-free assay; technique = competition with immobilised ligand; result = 84%
target = AKT3 (Homo sapiens, UniProt Q9Y243); effect on = cell-free assay; technique = competition with immobilised ligand; result = 100%
target = STK25 (Homo sapiens, UniProt O00506); effect on = cell-free assay; technique = competition with immobilised ligand; result = 100%
target = IRAK3 (Homo sapiens, UniProt Q9Y616); effect on = cell-free assay; technique = competition with immobilised ligand; result = 76%
target = STK16 (Homo sapiens, UniProt O75716); effect on = cell-free assay; technique = competition with immobilised ligand; result = 86%
target = STK17A (Homo sapiens, UniProt Q9UEE5); effect on = binding; technique = competition with immobilised ligand; result = 40%
target = SIK1 (Homo sapiens, UniProt P57059); technique = competition binding; result = 96%
target = Tyrosine-protein kinase ABL1, phosphorylated (ABL1, Homo sapiens, UniProt P00519, F317I); effect on = binding; result = 100%
target = FER (Homo sapiens, UniProt P16591); effect on = cell-free assay; technique = competition with immobilised ligand; result = 100%

Set 2
Technique: logD(dd/w) and ALogP
Setting: JT method
Measurement: lipophilic permeability efficiency
Structure (SMILES) = CC(C)C[C@@H]1NC(=O)[C@H](CC(C)C)NC(=O)[C@@H](CC(C)C)NC(=O)[C@H](C)NC(=O)[C@H](C(C)C)NC(=O)[C@H](C)NC(=O)[C@H](C)NC1=O; result = 2.37
Structure (SMILES) = CC(C)C[C@@H]1NC(=O)[C@H](CC(C)C)NC(=O)[C@H](CC(C)C)NC(=O)[C@H](C(C)C)NC(=O)[C@H](C(C)C)NC(=O)[C@H](C)NC(=O)[C@H](C)NC1=O; result = 2.49
Structure (SMILES) = CC(C)C[C@@H]1NC(=O)[C@H](CC(C)C)NC(=O)[C@H](CC(C)C)NC(=O)[C@H](C(C)C)NC(=O)[C@H](C(C)C)NC(=O)[C@H](Cc2cscn2)NC(=O)[C@H](C)NC1=O; result = 2.84
Structure (SMILES) = CC(C)C[C@@H]1NC(=O)[C@H](C)NC(=O)[C@H](CC(C)C)NC(=O)[C@@H](CC(C)C)NC(=O)[C@H](CC(C)C)NC(=O)[C@H](C(C)C)NC(=O)[C@H](CCC(=O)N2CCCC2)NC1=O; result = 1.84
Structure (SMILES) = CC(C)C[C@@H]1NC(=O)[C@H](Cc2cscn2)NC(=O)[C@@H](CC(C)C)NC(=O)[C@H](CC(C)C)NC(=O)[C@@H](CCC(=O)N2CCCC2)NC(=O)[C@H](CC(C)C)NC(=O)[C@@H](CC(C)C)NC1=O; result = 2.35
Structure (SMILES) = CC(C)C[C@@H]1NC(=O)[C@H](CC(C)C)NC(=O)[C@@H](C(C)C)NC(=O)[C@H](Cc2cscn2)NC(=O)[C@@H](Cc2cscn2)NC(=O)[C@H](Cc2cscn2)NC(=O)[C@H](CCC(=O)N2CCCC2)NC1=O; result = 1.59
Structure (SMILES) = CC(C)C[C@@H]1NC(=O)[C@H](C(C)C)NC(=O)[C@H](C)NC(=O)[C@@H](CC(C)C)NC(=O)[C@H](C(C)C)NC(=O)[C@H](CC(C)C)NC(=O)[C@@H](CC(C)C)NC1=O; result = 2.43

Set 3
Target: Calcium/calmodulin-dependent protein kinase type II subunit alpha (CAMK2A, Homo sapiens, UniProt Q9UQM7)
Sequence of UniProt Q9UQM7 (whole entry, looked up): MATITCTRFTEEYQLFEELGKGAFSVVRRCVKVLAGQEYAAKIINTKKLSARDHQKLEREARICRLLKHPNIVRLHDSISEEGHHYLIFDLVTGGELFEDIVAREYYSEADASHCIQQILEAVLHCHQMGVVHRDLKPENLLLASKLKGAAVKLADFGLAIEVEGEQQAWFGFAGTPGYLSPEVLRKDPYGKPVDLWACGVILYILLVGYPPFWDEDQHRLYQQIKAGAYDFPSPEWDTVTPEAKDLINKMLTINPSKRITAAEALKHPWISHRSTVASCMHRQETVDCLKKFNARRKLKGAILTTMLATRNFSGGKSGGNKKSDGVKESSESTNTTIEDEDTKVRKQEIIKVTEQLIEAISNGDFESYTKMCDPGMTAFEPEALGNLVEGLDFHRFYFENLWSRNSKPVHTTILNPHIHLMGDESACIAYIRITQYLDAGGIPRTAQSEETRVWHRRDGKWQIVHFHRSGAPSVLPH
Effect on: enzyme activity
Mode: inhibitor
Tested at: 10 µM
Measurement: inhibition
SMILES = Oc1ccc(C2COc3cc(O)ccc3C2)cc1 (racemic); result = -11%
SMILES = OCCc1c[nH]c2ccccc12; result = -11%
SMILES = CCOc1ncc(C)c2c1[C@H](c1ccc(C#N)cc1OC)C(C(N)=O)=C(C)N2; result = 2%
SMILES = CN(C)CCC(c1ccc(Cl)cc1)c1ccccn1 (stereo not drawn); result = -2%
SMILES = CC(=O)O[C@H]1[C@H](O[C@H]2CC[C@]34C[C@]35CC[C@]3(C)[C@@H]([C@@]6(C)CC[C@@H](C(C)(C)O)O6)[C@@H](O)C[C@@]3(C)[C@@H]5C[C@H](O[C@@H]3O[C@H](CO)[C@@H](O)[C@H](O)[C@H]3O)[C@H]4C2(C)C)OC[C@@H](O)[C@@H]1O; result = -23%
SMILES = Clc1ccc(Cn2c(CN3CCCC3)nc3ccccc32)cc1; result = -12%
SMILES = CC(=O)O[C@]1(C(C)=O)CC[C@H]2[C@@H]3C=C(Cl)C4=CC(=O)CC[C@]4(C)[C@H]3CC[C@@]21C; result = -6%
SMILES = COc1ccc(-c2cc(=O)c3c(O)cc(O[C@@H]4O[C@H](C(=O)O)[C@@H](O)[C@H](O)[C@H]4O)cc3o2)cc1O; result = -5%
SMILES = C[n+]1c2n(c(=O)c3ccccc31)CCc1c-2[nH]c2ccccc12; result = -7%
SMILES = CN(Cc1ccc(C(C)(C)C)cc1)Cc1cccc2ccccc12; result = -1%

Set 4
SMILES: O=C1CCC(N2Cc3cc(C4CCN(Cc5ccccc5)CC4)ccc3C2=O)C(=O)N1 (stereo not drawn)
Mode: degrader
Measurement: remaining protein
DNA-binding protein Ikaros: DNA-binding protein Ikaros (Homo sapiens, UniProt Q13422)
Sequence of UniProt Q13422 (whole entry, looked up): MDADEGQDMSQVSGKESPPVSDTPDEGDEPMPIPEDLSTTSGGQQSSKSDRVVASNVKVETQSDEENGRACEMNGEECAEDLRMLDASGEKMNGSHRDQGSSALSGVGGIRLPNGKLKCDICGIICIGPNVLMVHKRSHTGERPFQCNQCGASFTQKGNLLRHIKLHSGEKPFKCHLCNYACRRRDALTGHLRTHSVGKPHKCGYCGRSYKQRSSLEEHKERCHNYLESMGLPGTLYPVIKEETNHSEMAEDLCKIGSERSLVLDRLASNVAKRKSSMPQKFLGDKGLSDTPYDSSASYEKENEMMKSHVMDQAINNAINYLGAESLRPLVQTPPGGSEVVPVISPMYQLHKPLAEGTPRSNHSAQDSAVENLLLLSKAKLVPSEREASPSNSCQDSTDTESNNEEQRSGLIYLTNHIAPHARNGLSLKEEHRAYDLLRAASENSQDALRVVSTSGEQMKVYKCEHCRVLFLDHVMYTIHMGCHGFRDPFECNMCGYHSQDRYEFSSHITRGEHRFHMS
target = DNA-binding protein Ikaros; technique = HiBiT; cells = HEK293; tested at = 0.0005081 µM; time = 6 h; result = 98.3%
target = Sal-like protein 4 (SALL4, Homo sapiens, UniProt Q9UJQ4); technique = HiBiT; cells = HEK293; tested at = 0.0001694 µM; result = 87.2% and 87.4%
target = CSNK1A1 (Homo sapiens, UniProt P48729); technique = HiBiT; cells = HEK293; tested at = 0.0001694 µM; time = 6 h; result = 107%
target = CRBN/Zinc finger protein Helios (Homo sapiens, UniProt Q96SW2+Q9UKS7); technique = flow cytometry; cells = primary human regulatory T cells; tested at = 0.001372 µM; time = 6 h; result = 107%
target = Zinc finger protein Aiolos (Homo sapiens, UniProt Q9UKT9); technique = HiBiT; cells = HEK293; tested at = 0.01372 µM; result = 85.5% and 92.5%
target = DNA-binding protein Ikaros; technique = HiBiT; cells = HEK293; tested at = 0.04115 µM; time = 6 h; result = 88.8%
target = DNA-binding protein Ikaros; technique = HiBiT; cells = HEK293; tested at = 0.004572 µM; result = 90.8% and 93.8%
target = DNA-binding protein Ikaros; technique = HiBiT; cells = HEK293; tested at = 0.001524 µM; result = 99.4% and 90.1%

Some of these lines once more (set 4):
target = DNA-binding protein Ikaros; technique = HiBiT; cells = HEK293; tested at = 0.04115 µM; time = 6 h; result = 88.8%
target = DNA-binding protein Ikaros; technique = HiBiT; cells = HEK293; tested at = 0.0005081 µM; time = 6 h; result = 98.3%
target = Sal-like protein 4 (SALL4, Homo sapiens, UniProt Q9UJQ4); technique = HiBiT; cells = HEK293; tested at = 0.0001694 µM; result = 87.2% and 87.4%
target = CRBN/Zinc finger protein Helios (Homo sapiens, UniProt Q96SW2+Q9UKS7); technique = flow cytometry; cells = primary human regulatory T cells; tested at = 0.001372 µM; time = 6 h; result = 107%
target = DNA-binding protein Ikaros; technique = HiBiT; cells = HEK293; tested at = 0.004572 µM; result = 90.8% and 93.8%
target = Zinc finger protein Aiolos (Homo sapiens, UniProt Q9UKT9); technique = HiBiT; cells = HEK293; tested at = 0.01372 µM; result = 85.5% and 92.5%
target = CSNK1A1 (Homo sapiens, UniProt P48729); technique = HiBiT; cells = HEK293; tested at = 0.0001694 µM; time = 6 h; result = 107%
target = DNA-binding protein Ikaros; technique = HiBiT; cells = HEK293; tested at = 0.001524 µM; result = 99.4% and 90.1%
